Measurements pooled from the literature.
Compare with care: the assays were run in different laboratories.
Observed: metabolic stability
Species: human

The half-life of C[C@@H]1NC(=O)[C@H](CCCCN)NC(=O)[C@H](CCCNC(=N)N)NC(=O)[C@H](Cc2ccccc2)NC(=O)[C@H](CCCCN)NC(=O)CC/C=C/CCC(=O)NCCCC[C@@H](C(N)=O)NC(=O)[C@H](Cc2ccccc2)NC(=O)[C@H](Cc2ccccc2)NC(=O)[C@H](CCCNC(=N)N)NC(=O)[C@H](CCCCN)NC(=O)[C@H](Cc2ccccc2)NC1=O is reported as 55.2 min (liver microsomes; 3.1 µM, pH 7.4).
C=CC(=O)N1CCCC(n2c(=O)c3ncccc3n(Cc3ccc(Oc4ccccc4)cc3)c2=O)C1 (stereo not shown) has a half-life of 84.8 min (hepatocytes; 1 µM).
CNC(=O)C1CCCN(C(=O)C2CC3CCC2N3C(=O)[C@@H]2C[C@@H](O)CN2C(=O)NCc2cccc(Cl)c2F)C1 (mixture of isomers) gave a half-life of 53 min (liver microsomes).
Cc1ncsc1-c1ccc(CNC(=O)[C@@H]2C[C@@H](O)CN2C(=O)[C@@H](NC(=O)COCCOCCOCCNC(=O)C[C@@H]2N=C(c3ccc(Cl)cc3)c3c(sc(C)c3C)-n3c(C)nnc32)C(C)(C)C)cc1 gave a half-life of 0.9 min (liver microsomes; 1 µM).
For Cc1c(Cc2ccc(F)c(OC(C)C(=O)O)c2)c2ccc(C(=O)NC(C)c3ccc(C(C)(C)C)cc3)cc2n1CC1CCC1 (stereo not shown), the half-life was > 60 min (liver microsomes).
CN(C)C(=O)c1cccc(N2Cc3cn(Cc4ccc(F)cc4F)nc3C2)c1 gave a half-life of 68 min (liver microsomes).
With C/C(=N\OCCCN1CCOCC1)c1ccc(C(F)(F)F)cc1 the half-life was 51 min (liver microsomes).
The half-life of Cc1c(Cc2cccc(OC(C)(C)C(=O)O)c2)c2ccc(C(=O)N[C@@H](C)c3cccc(C(C)(C)C)c3)cc2n1CC(C)C is reported as > 60 min (liver microsomes).
The half-life of O=c1c(-c2cnn(-c3ccccc3)c2)c(C(F)(F)F)oc2c(O)c(O)ccc12 is reported as 315 min (liver microsomes).
Cc1c(Cc2cc(F)cc(OC(C)(C)C(=O)O)c2)c2ccc(C(=O)N[C@@H](C)c3cccc(C(C)(C)C)c3)cc2n1CC(C)C has a half-life of > 60 min (liver microsomes).
For CN(C)C(=O)c1ccnc(N2Cc3cn(Cc4ccc(F)cc4F)nc3C2)n1, the half-life was > 1000 min (liver microsomes).
O=C(N[C@@H](CCCCNC(=O)c1ccc([N+](=O)[O-])o1)c1nc2ccccc2[nH]1)c1ccc(-c2ccccc2)cc1 gave a half-life of 2.5 min (liver microsomes; 1 µM).
With O=S(=O)(NCc1ccncc1)c1ccc(C2CCCCC2)cc1 the half-life was 79.2 min (hepatocytes; 1 µM).
The half-life of C/C(=N\OCCN(C)Cc1ccccc1)c1ccc(C(F)(F)F)cc1 is reported as 14.8 min (liver microsomes).
CN(C)C(=O)c1ccnc(N2Cc3cn(Cc4cc(Cl)cc(Cl)c4)nc3C2)n1 gave a half-life of 44 min (liver microsomes).
With CC(C)Cn1cc(Cc2cccc(OC(C)(C)C(=O)O)c2)c2cc(F)c(C(=O)N[C@@H](C)c3cccc(C(C)(C)C)c3)cc21 the half-life was > 60 min (liver microsomes).
For CN(C)C(=O)c1cccc(N2Cc3cn(CC4CCCCC4)nc3C2)c1, the half-life was 26 min (liver microsomes).
For N=C(NCC[C@H](NC(=O)c1noc(-c2cc(F)ccc2F)n1)c1nc2ccccc2[nH]1)c1ccc([N+](=O)[O-])o1, the half-life was 2.9 min (liver microsomes; 1 µM).
With O=C(c1ccc(-c2ccccc2)cc1)N1CCCCC1 the half-life was 139 min (liver microsomes; 2 µM, pH 7.4).
Cc1c(Cc2ccc(Cl)c(O[C@@H](C)C(=O)O)c2)c2ccc(C(=O)N[C@@H](C)c3ccc(C(C)(C)C)cc3)cc2n1CC1CC1 has a half-life of > 60 min (liver microsomes).
CCC(CC)CNC(=N)NC(=N)NCCCCCCNC(=N)NC(=N)NCC(CC)CC gave a half-life of 668 min (liver microsomes; 2 µM).
With Cc1c(Cc2cccc(OC(C)(C)C(=O)O)c2)c2ccc(C(=O)N[C@@H](C)c3ccc(F)c(C(C)(C)C)c3)cc2n1CC(C)C the half-life was > 60 min (liver microsomes).
For CC(C)C[C@H](NC(=O)[C@H](CO)NC(=O)[C@H](CCC(=O)O)NC(=O)CNC(=O)[C@H](C)NC(=O)OCc1ccccc1)C(=O)N[C@@H](Cc1ccc(O)cc1)C(=O)N[C@@H](CCC(=O)O)C(N)=O, the half-life was 759 min (plasma).
For CN(C)C(=O)c1cccc(N2Cc3cn(Cc4ccc(Cl)cc4)nc3C2)c1, the half-life was 50 min (liver microsomes).
Cc1c(Cc2ccc(Cl)c(O[C@H](C)C(=O)O)c2)c2ccc(C(=O)N[C@@H](C)c3ccc(C(C)(C)C)cc3)cc2n1C gave a half-life of 56 min (liver microsomes).
CN(C)C(=O)c1ccnc(N2Cc3cn(Cc4ccc(C#N)cc4)nc3C2)n1 gave a half-life of > 1000 min (liver microsomes).
O=C(N1CCCCC1)C12CC(c3ccccc3)(C1)C2(Br)Br gave a half-life of 12 min (liver microsomes; 2 µM, pH 7.4).
With CC(=O)Nc1ccnc(N2Cc3cnn(Cc4ccc(F)cc4)c3C2)n1 the half-life was 33 min (liver microsomes).
With Cc1c(Cc2ccc(OC(C)C(=O)O)cc2)c2ccc(C(=O)NC(C)c3ccc(C(C)(C)C)cc3)cc2n1C (mixture of isomers) the half-life was > 60 min (liver microsomes).
The half-life of CN(C)C(=O)c1ccnc(N2Cc3cn(Cc4ccc(Cl)cc4)nc3C2)n1 is reported as 244 min (liver microsomes).
With Cc1nc2ccc(S(=O)(=O)n3nc(SCc4ccc(Cl)cc4)nc3N)cc2s1 the half-life was 2.5 min (liver microsomes; 1 µM, pH 7.4).

For quick reference, copied from above:
With CC(=O)Nc1ccnc(N2Cc3cnn(Cc4ccc(F)cc4)c3C2)n1 the half-life was 33 min (liver microsomes).
With Cc1c(Cc2ccc(OC(C)C(=O)O)cc2)c2ccc(C(=O)NC(C)c3ccc(C(C)(C)C)cc3)cc2n1C (mixture of isomers) the half-life was > 60 min (liver microsomes).
The half-life of CN(C)C(=O)c1ccnc(N2Cc3cn(Cc4ccc(Cl)cc4)nc3C2)n1 is reported as 244 min (liver microsomes).
With Cc1nc2ccc(S(=O)(=O)n3nc(SCc4ccc(Cl)cc4)nc3N)cc2s1 the half-life was 2.5 min (liver microsomes; 1 µM, pH 7.4).
